Assay results pooled from the literature.
Compare with care: the assays were run in different laboratories. ± marks the error that the study gave.
UniProt Q15761, sequence (whole entry, looked up): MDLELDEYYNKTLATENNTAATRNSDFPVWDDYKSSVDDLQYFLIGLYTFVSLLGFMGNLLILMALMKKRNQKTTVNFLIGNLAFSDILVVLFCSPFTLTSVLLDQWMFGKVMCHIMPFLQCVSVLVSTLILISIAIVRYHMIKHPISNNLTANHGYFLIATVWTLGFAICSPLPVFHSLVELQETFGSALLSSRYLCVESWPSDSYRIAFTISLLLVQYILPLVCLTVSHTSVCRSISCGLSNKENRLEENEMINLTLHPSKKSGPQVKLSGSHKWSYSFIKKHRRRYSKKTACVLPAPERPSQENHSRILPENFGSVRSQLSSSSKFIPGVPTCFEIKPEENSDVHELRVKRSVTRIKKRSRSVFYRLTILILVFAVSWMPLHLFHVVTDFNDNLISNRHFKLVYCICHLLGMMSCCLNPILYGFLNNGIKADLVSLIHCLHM
UniProt G5EFZ1, sequence (whole entry, looked up): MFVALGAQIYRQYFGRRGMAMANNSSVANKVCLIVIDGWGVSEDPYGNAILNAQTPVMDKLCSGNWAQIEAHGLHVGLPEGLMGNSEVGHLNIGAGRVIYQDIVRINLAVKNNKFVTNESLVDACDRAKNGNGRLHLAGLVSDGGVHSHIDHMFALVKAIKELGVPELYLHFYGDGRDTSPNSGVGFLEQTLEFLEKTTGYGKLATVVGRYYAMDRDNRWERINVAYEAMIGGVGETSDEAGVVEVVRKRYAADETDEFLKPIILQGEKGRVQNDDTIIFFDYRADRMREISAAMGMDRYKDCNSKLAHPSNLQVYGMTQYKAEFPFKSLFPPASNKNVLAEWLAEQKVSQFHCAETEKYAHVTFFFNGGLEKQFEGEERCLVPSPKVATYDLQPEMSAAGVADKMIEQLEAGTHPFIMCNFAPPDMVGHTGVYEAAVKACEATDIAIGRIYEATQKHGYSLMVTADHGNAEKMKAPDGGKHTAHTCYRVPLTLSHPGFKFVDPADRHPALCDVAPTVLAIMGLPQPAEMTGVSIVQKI
UniProt Q6GIL5, sequence (whole entry, looked up): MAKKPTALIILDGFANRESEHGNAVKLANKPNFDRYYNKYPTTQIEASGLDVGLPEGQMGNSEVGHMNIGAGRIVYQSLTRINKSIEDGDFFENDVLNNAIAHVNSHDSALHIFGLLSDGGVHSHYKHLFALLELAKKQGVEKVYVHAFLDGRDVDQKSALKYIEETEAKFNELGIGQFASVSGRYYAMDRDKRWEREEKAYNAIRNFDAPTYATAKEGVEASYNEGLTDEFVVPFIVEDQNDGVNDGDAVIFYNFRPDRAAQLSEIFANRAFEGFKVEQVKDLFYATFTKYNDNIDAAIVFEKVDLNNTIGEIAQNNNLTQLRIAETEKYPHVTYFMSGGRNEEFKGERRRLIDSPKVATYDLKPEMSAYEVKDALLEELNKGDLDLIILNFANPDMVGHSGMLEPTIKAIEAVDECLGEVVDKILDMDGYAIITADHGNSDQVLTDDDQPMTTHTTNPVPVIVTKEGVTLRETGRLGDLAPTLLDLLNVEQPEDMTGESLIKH

C[C@H]1N=C(c2ccccc2F)c2cc(Br)ccc2-n2cnc(C(=O)OC3O[C@H](C(=O)O)[C@@H](O)[C@H](O)[C@H]3O)c21 (stereo partly drawn) — result for “excretion in urine and feces”: 3.1 ± 1.4% (Swiss Webster mouse; intraperitoneal, 750 µg of parent drug, 0 to 48 h; relative to: dose).
CC(C)C[C@H](NC(=O)[C@H](Cc1ccc(O)cc1)NC(=O)[C@H](Cc1c[nH]cn1)NC(=O)[C@@H](NC(=O)[C@H](CC(C)C)NC(=O)[C@H](C)NC(=O)[C@H](C)NC(=O)[C@H](CCCCN)NC(=O)CNC(=O)[C@@H](NC(=O)[C@H](Cc1c[nH]cn1)NC(=O)[C@H](CCCCN)NC(=O)CNC(=O)[C@@H](NC(=O)[C@H](Cc1c[nH]cn1)NC(=O)[C@H](C)NC(=O)[C@H](C)NC(=O)[C@H](CCCCN)NC(=O)[C@H](CCCCN)NC(=O)[C@H](Cc1ccccc1)NC(=O)[C@H](Cc1ccccc1)NC(=O)[C@H](CO)NC(=O)CNC(=O)[C@H](Cc1c[nH]c2ccccc12)NC(=O)CN)C(C)C)C(C)C)[C@@H](C)O)C(N)=O: “acute toxic concentration” 5 µg/mL (zebrafish embryos; 1 h, 4, 28, 52 hpf).
The logD of CC[C@H](C)[C@H](NC(=O)[C@@H](NC(=O)[C@H](CC(N)=O)NC(=O)[C@H](CCC(N)=O)NC(=O)[C@@H]1CCCN1C(=O)[C@@H](NC(=O)[C@H](Cc1ccc(O)cc1)NC(=O)CNC(=O)[C@H](Cc1ccc(O)cc1)NC(=O)[C@H](Cc1c[nH]c2ccccc12)NC(=O)[C@H](Cc1c[nH]cn1)NC(=O)[C@H](Cc1ccc(O)cc1)NC(=O)CCOCCOCCOCCOCCOCCOCCC(=O)NCCCN(CCCNC(=O)CCOCCOCCOCCOCCOCCOCCC(=O)N[C@@H](Cc1ccc(O)cc1)C(=O)N[C@@H](Cc1c[nH]cn1)C(=O)N[C@@H](Cc1c[nH]c2ccccc12)C(=O)N[C@@H](Cc1ccc(O)cc1)C(=O)NCC(=O)N[C@@H](Cc1ccc(O)cc1)C(=O)N[C@H](C(=O)N1CCC[C@H]1C(=O)N[C@@H](CCC(N)=O)C(=O)N[C@@H](CC(N)=O)C(=O)N[C@H](C(=O)N[C@H](C(=O)O)[C@@H](C)CC)C(C)C)[C@@H](C)O)CC(=O)NCCCN(CCCNC(=O)CN(CCCNC(=O)CCOCCOCCOCCOCCOCCOCCC(=O)N[C@@H](Cc1ccc(O)cc1)C(=O)N[C@@H](Cc1c[nH]cn1)C(=O)N[C@@H](Cc1c[nH]c2ccccc12)C(=O)N[C@@H](Cc1ccc(O)cc1)C(=O)NCC(=O)N[C@@H](Cc1ccc(O)cc1)C(=O)N[C@H](C(=O)N1CCC[C@H]1C(=O)N[C@@H](CCC(N)=O)C(=O)N[C@@H](CC(N)=O)C(=O)N[C@H](C(=O)N[C@H](C(=O)O)[C@@H](C)CC)C(C)C)[C@@H](C)O)CCCNC(=O)CCOCCOCCOCCOCCOCCOCCC(=O)N[C@@H](Cc1ccc(O)cc1)C(=O)N[C@@H](Cc1c[nH]cn1)C(=O)N[C@@H](Cc1c[nH]c2ccccc12)C(=O)N[C@@H](Cc1ccc(O)cc1)C(=O)NCC(=O)N[C@@H](Cc1ccc(O)cc1)C(=O)N[C@H](C(=O)N1CCC[C@H]1C(=O)N[C@@H](CCC(N)=O)C(=O)N[C@@H](CC(N)=O)C(=O)N[C@H](C(=O)N[C@H](C(=O)O)[C@@H](C)CC)C(C)C)[C@@H](C)O)CC(=O)NCCOCCOCCOCCOCCC(=O)N[C@@H](CCCCNC(=O)CC[C@H](C(=O)O)N1CCN(CC(=O)O)CCN(CC(=O)O)CC1)C(N)=O)[C@@H](C)O)C(C)C)C(=O)O [gallium-68 labelled] is reported as -2.17 ± 0.21 (1-octanol/phosphate buffer; pH 7.4).
Under “brain uptake ratio”, CCc1cc2c(cc1N1CCC(N3CCOCC3)CC1)C(C)(C)c1c(c3ccc(C#N)cc3n1CC[18F])C2=O is recorded as 40 fold (PET; nude mouse, brain; 5 min; relative to: observed over vascular).
O=C(O)CCC(NP(=O)(O)OCCC[C@@H](NC(=O)CCC(NC(=O)CCCCCNC(=O)CCCCCNC(=O)c1ccc([18F])cc1)C(=O)O)C(=O)O)C(=O)O (stereo partly drawn) has a tracer uptake of 0.25 %ID/g (CWR22Rv1 tumour model; host not given, liver; intravenous, 2 h, tumour-bearing).
The AC50 of COc1ccc(C[C@H]2C(=O)N[C@@H](CC(N)=O)C(=O)N[C@@H](CC(=O)O)C(=O)N[C@@H](CO)C(=O)NCC(=O)N[C@@H](Cc3c[nH]c4ccccc34)C(=O)N(C)[C@@H](Cc3ccc(O)cc3)C(=O)N[C@@H](CC(N)=O)C(=O)N[C@@H]([C@@H](C)O)C(=O)N(C)[C@@H](Cc3ccccc3)C(=O)N[C@H](C(N)=O)CSCC(=O)N[C@@H](Cc3ccc(O)cc3)C(=O)N2C)cc1 is reported as 0.174 µM (2,3-bisphosphoglycerate-independent phosphoglycerate mutase (gpmI, Staphylococcus aureus, UniProt Q6GIL5); enzyme activity).
The hatching rate of N=C(N)NCCC[C@@H]1NC(=O)[C@H](CCCNC(=N)N)NC(=O)[C@H](CCCNC(=N)N)NC(=O)[C@H](CCCNC(=N)N)NC(=O)[C@H](Cc2c[nH]c3ccccc23)NC(=O)[C@H](CCCNC(=N)N)NC(=O)[C@H](CCCNC(=N)N)NC(=O)[C@@H](N)CSSC[C@@H](C(N)=O)NC1=O is reported as ~75% (zebrafish embryos; 50 µg/mL, 48 h).
CC(C)C[C@@H](N)C(=O)NCC(=O)N[C@H](C)C(=O)N[C@H](CO)C(=O)N[C@H](Cc1c[nH]c2ccccc12)C(=O)N[C@H](Cc1c[nH]cn1)C(=O)N[C@H](CCCNC(=N)N)C(=O)N1CCC[C@@H]1C(=O)N[C@H](CC(=O)O)C(=O)N[C@H](CCCCN)C(=O)N[C@H](CS)C(=O)N[C@H](CS)C(=O)N[C@H](CC(C)C)C(=O)NCC(=O)N[C@H](Cc1ccc(O)cc1)C(=O)N[C@H](CCC(N)=O)C(=O)N[C@H](CCCCN)C(=O)N[C@H](CCCNC(=N)N)C(=O)N1CCC[C@@H]1C(=O)N[C@H](CC(C)C)C(=O)N1CCC[C@@H]1C(N)=O gave a measured concentration of 477 ± 19 ng/mL (LC-MS/MS; rat plasma; 500 ng/mL, -80 to 25 °C, 3 freeze-thaw cycles).
With COc1ccc(C[C@H]2C(=O)N[C@@H](Cc3ccc(O)cc3)C(=O)N3CCC[C@H]3C(=O)NCC(=O)N[C@@H]([C@@H](C)O)C(=O)N[C@@H](C)C(=O)N[C@@H](CCC(N)=O)C(=O)N(C)[C@@H](Cc3ccc(O)cc3)C(=O)N[C@@H]([C@@H](C)O)C(=O)N[C@H](C(N)=O)CSCC(=O)N[C@H](Cc3ccc(O)cc3)C(=O)N[C@@H](Cc3c[nH]c4ccccc34)C(=O)N(C)[C@@H](Cc3ccc(O)cc3)C(=O)N[C@@H](CC(=O)O)C(=O)N(C)[C@@H](CO)C(=O)N(C)[C@@H](Cc3ccc(O)cc3)C(=O)N2C)cc1 the AC50 was 34.7 µM (ipgm-1 (Caenorhabditis elegans, UniProt G5EFZ1); enzyme activity).
CC(C)[C@H](NC(=O)CNC(=O)[C@H](CCC(N)=O)NC(=O)[C@H](C)N)C(=O)O: “subjects with any adverse event” 33.3% (human; 10 mg/kg single dose).
The tracer uptake of CN[C@](C)(C[18F])C(=O)O is reported as 46 %ID/g (DU-145 tumour model; host not given, pancreas; 15 min, tumour-bearing).
CC[C@H](C)C(=O)N1CCC(NC(=O)Nc2ccc(OC(F)(F)F)c(F)c2)CC1 has an AUC(0-t) of 4200 ng·h/mL (human; oral, 8 mg, fed, geometric LS mean).
O=C(CN1CCN(c2cc3c(cc2F)c(=O)c(C(=O)O)cn3C2CC2)CC1)Nc1ccc(Cl)cc1 gave a peripheral volume of 0.243 mL (female BALB/c mice; intravenous, 3.75 mg/kg).
For [11CH3]n1c(=O)n(CCCO)c(=O)c2c1nc(Oc1cccc(OC(F)(F)F)c1)n2Cc1ccc(Cl)cc1, the tracer uptake was 0.14 ± 0.05 %ID/g (ex vivo biodistribution; Sprague Dawley rat, fat; 5 min post injection).
CC(=O)N[C@@H](CCCNC(=N)N)C(=O)N[C@@H](Cc1ccc(O)cc1)C(=O)N[C@@H](CCCNC(=N)NC(=O)NCCCCN)C(=O)N[C@@H](CC(C)C)C(=O)N[C@H](CCCNC(=N)N)C(=O)N[C@@H](Cc1ccc(O)cc1)C(N)=O has a Ki of > 5 µM (Neuropeptide Y receptor type 5 (NPY5R, Homo sapiens, UniProt Q15761); ligand displacement, radioligand).

A few entries again:
O=C(CN1CCN(c2cc3c(cc2F)c(=O)c(C(=O)O)cn3C2CC2)CC1)Nc1ccc(Cl)cc1 gave a peripheral volume of 0.243 mL (female BALB/c mice; intravenous, 3.75 mg/kg).
For [11CH3]n1c(=O)n(CCCO)c(=O)c2c1nc(Oc1cccc(OC(F)(F)F)c1)n2Cc1ccc(Cl)cc1, the tracer uptake was 0.14 ± 0.05 %ID/g (ex vivo biodistribution; Sprague Dawley rat, fat; 5 min post injection).
